Experimental data pooled from the literature.
± gives the spread as reported.
alkB full length assumed: alkB full length assumed (Escherichia coli, UniProt P05050)
Chain of UniProt P05050 (whole entry, looked up): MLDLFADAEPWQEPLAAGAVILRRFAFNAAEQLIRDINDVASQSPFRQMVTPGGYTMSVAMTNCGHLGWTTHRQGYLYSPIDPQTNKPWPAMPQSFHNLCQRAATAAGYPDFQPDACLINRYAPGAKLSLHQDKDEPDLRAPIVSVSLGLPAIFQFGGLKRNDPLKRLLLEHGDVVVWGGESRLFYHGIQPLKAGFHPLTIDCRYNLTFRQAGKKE
MYB52 full length assumed: MYB52 full length assumed (Arabidopsis thaliana, UniProt Q6R0C4)
Chain of UniProt Q6R0C4 (whole entry, looked up): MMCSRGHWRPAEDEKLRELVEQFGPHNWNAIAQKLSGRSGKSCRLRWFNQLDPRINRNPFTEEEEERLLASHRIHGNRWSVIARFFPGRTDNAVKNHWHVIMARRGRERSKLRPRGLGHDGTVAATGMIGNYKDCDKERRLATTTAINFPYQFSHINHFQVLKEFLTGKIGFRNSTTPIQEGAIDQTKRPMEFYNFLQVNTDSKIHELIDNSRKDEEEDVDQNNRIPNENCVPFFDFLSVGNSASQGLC
B1: UGT1A9 (Homo sapiens, UniProt O60656); chain GKLLVVPMDGSHWFTMRSVVEKLILRGHEVVVVMPEVSWQLGRSLNCTVKTYSTSYTLEDLDREFKAFAHAQWKAQVRSIYSLLMGSYNDIFDLFFSNCRSLFKDKKLVEYLKESSFDAVFLDPFDNCGLIVAKYFSLPSVVFARGILCHYLEEGAQCPAPLSYVPRILLGFSDAMTFKERVRNHIMHLEEHLLCHRFFKNALEIASEILQTPVTEYDLYSHTSIWLLRTDFVLDYPKPVMPNMIFIGGINCHQGKPLPMEFEAYINASGEHGIVVFSLGSMVSEIPEKKAMAIADALGKIPQTVLWRYTGTRPSNLANNTILVKWLPQNDLLGHPMTRAFITHAGSHGVYESICNGVPMVMMPLFGDQMDNAKRMETKGAGVTLNVLEMTSEDLENALKAVINDKSYKENIMRLSSLHKDRPVEPLDLAVFWVEFVMRHKGAPHLRPAAHDLTWYQYHSLDVIGFLLAVVLTVAFITFKCCAYGYRKCLGKKGRVKKAHKSKTH
Chain of UniProt Q13569 (whole entry, looked up): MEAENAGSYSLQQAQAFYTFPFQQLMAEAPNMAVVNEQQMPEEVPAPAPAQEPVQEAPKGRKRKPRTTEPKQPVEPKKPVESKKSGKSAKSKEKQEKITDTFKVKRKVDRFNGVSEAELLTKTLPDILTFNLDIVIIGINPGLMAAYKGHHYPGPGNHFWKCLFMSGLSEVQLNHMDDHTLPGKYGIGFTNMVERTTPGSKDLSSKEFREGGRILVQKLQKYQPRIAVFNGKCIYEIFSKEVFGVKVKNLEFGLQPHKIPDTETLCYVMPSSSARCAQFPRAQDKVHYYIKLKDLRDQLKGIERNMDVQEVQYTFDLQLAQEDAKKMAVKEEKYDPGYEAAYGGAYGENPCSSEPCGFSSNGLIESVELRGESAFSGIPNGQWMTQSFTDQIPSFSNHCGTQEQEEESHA
Chain of UniProt O43463 (whole entry, looked up): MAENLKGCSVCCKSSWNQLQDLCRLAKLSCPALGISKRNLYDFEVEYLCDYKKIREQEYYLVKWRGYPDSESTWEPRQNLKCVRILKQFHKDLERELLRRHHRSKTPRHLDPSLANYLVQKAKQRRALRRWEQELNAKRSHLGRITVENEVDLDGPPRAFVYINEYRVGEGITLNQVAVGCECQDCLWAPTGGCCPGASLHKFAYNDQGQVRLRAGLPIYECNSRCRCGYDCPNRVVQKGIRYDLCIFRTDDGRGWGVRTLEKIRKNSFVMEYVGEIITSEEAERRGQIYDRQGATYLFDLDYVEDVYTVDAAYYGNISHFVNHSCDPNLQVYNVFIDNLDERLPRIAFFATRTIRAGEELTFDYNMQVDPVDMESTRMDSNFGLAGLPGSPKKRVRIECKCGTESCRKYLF
Chain of UniProt P33748 (whole entry, looked up): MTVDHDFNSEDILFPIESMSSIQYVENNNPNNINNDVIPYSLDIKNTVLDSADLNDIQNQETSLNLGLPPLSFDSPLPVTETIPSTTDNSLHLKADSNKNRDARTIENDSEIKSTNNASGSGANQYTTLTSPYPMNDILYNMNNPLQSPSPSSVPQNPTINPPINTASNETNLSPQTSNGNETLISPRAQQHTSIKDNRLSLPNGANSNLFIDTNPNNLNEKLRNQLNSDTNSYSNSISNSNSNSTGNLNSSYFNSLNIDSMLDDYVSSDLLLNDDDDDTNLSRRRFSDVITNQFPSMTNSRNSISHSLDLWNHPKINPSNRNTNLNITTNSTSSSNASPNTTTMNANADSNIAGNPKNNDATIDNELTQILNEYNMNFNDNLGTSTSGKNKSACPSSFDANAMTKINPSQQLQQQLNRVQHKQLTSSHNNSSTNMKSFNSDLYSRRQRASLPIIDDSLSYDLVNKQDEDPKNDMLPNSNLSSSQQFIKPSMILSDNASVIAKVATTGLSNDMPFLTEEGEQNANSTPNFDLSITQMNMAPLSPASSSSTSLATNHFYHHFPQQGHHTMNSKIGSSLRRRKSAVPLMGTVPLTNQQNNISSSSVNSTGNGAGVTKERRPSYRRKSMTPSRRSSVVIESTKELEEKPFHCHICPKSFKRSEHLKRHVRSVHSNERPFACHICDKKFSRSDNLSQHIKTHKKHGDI
Chain of UniProt P10721 (whole entry, looked up): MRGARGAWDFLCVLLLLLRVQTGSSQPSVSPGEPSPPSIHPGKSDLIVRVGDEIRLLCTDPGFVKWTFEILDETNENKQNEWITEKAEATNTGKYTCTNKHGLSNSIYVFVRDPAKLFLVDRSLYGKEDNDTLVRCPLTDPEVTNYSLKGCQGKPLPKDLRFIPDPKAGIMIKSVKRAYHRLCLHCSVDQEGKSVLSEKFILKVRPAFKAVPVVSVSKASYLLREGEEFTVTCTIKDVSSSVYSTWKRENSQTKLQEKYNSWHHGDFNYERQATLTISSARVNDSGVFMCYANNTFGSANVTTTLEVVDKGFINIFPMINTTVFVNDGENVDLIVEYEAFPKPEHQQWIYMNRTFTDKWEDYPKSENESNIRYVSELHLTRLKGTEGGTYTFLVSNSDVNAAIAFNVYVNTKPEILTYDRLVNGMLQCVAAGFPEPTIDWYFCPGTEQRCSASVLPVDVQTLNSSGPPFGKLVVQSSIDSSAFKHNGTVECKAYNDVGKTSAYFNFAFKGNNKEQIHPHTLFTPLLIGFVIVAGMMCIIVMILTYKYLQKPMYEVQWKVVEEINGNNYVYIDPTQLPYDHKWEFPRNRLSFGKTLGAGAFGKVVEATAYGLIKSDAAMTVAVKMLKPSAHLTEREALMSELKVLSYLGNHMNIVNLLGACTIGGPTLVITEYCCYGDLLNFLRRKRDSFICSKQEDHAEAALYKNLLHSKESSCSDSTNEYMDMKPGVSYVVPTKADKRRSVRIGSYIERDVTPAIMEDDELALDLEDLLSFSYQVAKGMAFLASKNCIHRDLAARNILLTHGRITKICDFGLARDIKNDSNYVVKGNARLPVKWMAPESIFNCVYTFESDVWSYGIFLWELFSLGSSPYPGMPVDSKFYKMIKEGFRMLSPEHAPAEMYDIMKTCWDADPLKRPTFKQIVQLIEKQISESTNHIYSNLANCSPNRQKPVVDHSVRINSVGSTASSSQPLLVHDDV
Chain of UniProt Q8LE43 (whole entry, looked up): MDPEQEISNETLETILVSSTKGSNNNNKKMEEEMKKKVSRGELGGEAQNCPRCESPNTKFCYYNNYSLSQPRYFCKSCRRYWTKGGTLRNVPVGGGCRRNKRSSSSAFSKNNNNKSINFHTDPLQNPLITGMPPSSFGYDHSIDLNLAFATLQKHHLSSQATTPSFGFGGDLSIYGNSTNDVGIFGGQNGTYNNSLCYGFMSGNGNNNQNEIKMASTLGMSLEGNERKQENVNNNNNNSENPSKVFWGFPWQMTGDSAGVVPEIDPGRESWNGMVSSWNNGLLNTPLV

Molecule | target or system | test | system | conditions | scale | quantity | value
GAGUUGAGUUGAGUUGAGUUGAGUUGAGUUGAGUUGAGUUGAGUUGAGUUGAGUU (ssRNA; single strand) | mtrB full length assumed T30P (Bacillus subtilis, UniProt P19466) | filter binding | – | with: L-tryptophan 1 mM | – | Kd | 180 ± 30 nM
TGCCTAGCGTTTCATTGTCCCTTCTTATTAGGTGATAATA (ssDNA) | alkB full length assumed | NECEEM | – | – | – | Kd | 27.5 ± 2.5 nM
B1 (UGT1A9) | COc1ccc(-c2oc3cc(O)cc(O)c3c(=O)c2OC)cc1OCc1ccccc1 | steady-state kinetics | – | pH 7.4, 37 °C | – | Km | 1.25 µM
AAATAATCATAAAGTATTAAAGTAATATATAC (dsDNA (Arabidopsis thaliana)) | DOF2.1 zinc finger (Arabidopsis thaliana, UniProt Q8LE43) | EMSA | double-stranded DNA, one strand shown | – | – | Kd | 3000 nM
GAACCTTTTTTTAGTGGTTATAGTTAAGAACAACCTATATATAGTTCTTTTTTATTCAGTAAAAAAAACAGTCATAAGAAGTACTACT (dsDNA) | MYB52 full length assumed | EMSA | double-stranded DNA, one strand shown | – | – | binding | binds
CCCATATCGGTGAATGCACGAGCAACCGATTGACACGGG (ssDNA) | alkB full length assumed | NECEEM | – | – | – | Kd | 29.3 ± 7.7 nM
GCGGTAAACTGCGTCCGAAGGGGCNTGCAGTGANCCCGAATGGGTCCGCCGCGAAGCG (XNA; Ds at 25 and 34, internal stem-loops, 3' mini-hairpin) | VEGFA fragment (Homo sapiens) | SPR | – | – | – | Kd | 0.0012 nM
ATTTATATAATATAAATTAATATTAATATTGCCCCTGATTATTTAATATAATTATAAAGCTAG / GCTTTATAATTATATTAAATAATCAGGGGCAATATTAATATTAATTTATATTATATAAATGCA (dsDNA; 3' overhangs) | MSN2 1-704 (Saccharomyces cerevisiae, UniProt P33748) | optical tweezers unzipping | – | pH 8.0, KCl 150 mM | – | Kd | 15.8 ± 2.6 nM
GAGGCATACCAGCTTATTCAAGGGGCCGGGGCAAGGGGGGGGTACCGTGGTAGGACATAGTAAGTGCAATCTGCGAA (structured DNA) | KIT (Homo sapiens, UniProt P10721) | flow cytometry | primary GIST cells | not purified | higher = more binding | relative binding | 35.8 geometric mean
UUAGGGUUAGGGUUAGGGUUAGGGUUAGGGUUAGGGUUAGGGUUAGGGUUAGGGUUAGGG (ssRNA) | SUV39H1 N-terminal fragment, chromodomain (Homo sapiens, UniProt O43463) | EMSA | – | Mg2+ 2 mM | – | Kd | 80 nM
CGCTAGGATCNGGCCCCGCC / GGCGGGGCCGGATCCTAGCG (dsDNA; blunt, tetrahydrofuran abasic site opposite G) | TDG full length assumed (Homo sapiens, UniProt Q13569) | EMSA | – | apparent, one-site fit | – | Kd | 21 nM
CAGTCATAAGAAGTACTACTAATTATTTCTTTTAAATTTGAATTTGTGTGGGGAATACCAAAGTAACTACTGATTGCTGGTAATTAATGTTTCCAGTGACTAATGAGAAAAAACAACTTGGGATGGAAAACTTATCATC (dsDNA) | MYB52 full length assumed | EMSA | double-stranded DNA, one strand shown | – | – | binding | binds
CCGGTCGTACGGAAAACCTGTATTTTCAGGGCTCCGG (dsDNA) | POLG fragment (Homo sapiens) | EMSA | double-stranded DNA, one strand shown | – | – | Kd | 124 nM

A few entries again:
Molecule | target or system | test | system | conditions | scale | quantity | value
TGCCTAGCGTTTCATTGTCCCTTCTTATTAGGTGATAATA (ssDNA) | alkB full length assumed | NECEEM | – | – | – | Kd | 27.5 ± 2.5 nM
CGCTAGGATCNGGCCCCGCC / GGCGGGGCCGGATCCTAGCG (dsDNA; blunt, tetrahydrofuran abasic site opposite G) | TDG full length assumed (Homo sapiens, UniProt Q13569) | EMSA | – | apparent, one-site fit | – | Kd | 21 nM
